Values quoted from earlier work as cited in several papers.
Lines come from different studies, so protocols differ. Values joined by “and” are separate records of one study, mostly repeats; a detail may differ. Numbers after ± are the reported error. In brackets after ≈: the same amount, converted by molar mass.

Compound | assay | test system | conditions | scale | quantity | result
COC(=O)[C@@H](N)Cc1ccc(OP2(=O)CO[C@@H](Cn3ccc(N)nc3=O)CO2)cc1 (stereo partly shown) | – | PBS | pH 6.5, Rp isomer | – | half-life | 4.27 h
CN(C)C(=O)c1cc2cnc(Nc3ccc(N4CCNCC4)cn3)nc2n1C1CCCC1 | item: midazolam | human | 400 mg once daily, 8 days | reference: midazolam alone | increase in AUCinf | 3.8 fold
CO[C@H]1C[C@H](O[C@H]2[C@H](C)[C@@H](O[C@@H]3O[C@H](C)C[C@H](N(C)C)[C@H]3OC(C)=O)[C@@H](C)C[C@@]3(CO3)C(=O)[C@H](C)[C@@H](OC(C)=O)[C@@H](C)[C@@H](C)OC(=O)[C@@H]2C)O[C@@H](C)[C@@H]1OC(C)=O | – | human liver microsomes 1 mg/mL | literature value | – | unbound fraction | 0.73
O=C(O)C(F)(F)C(F)(F)C(F)(F)C(F)(F)C(F)(F)C(F)(F)C(F)(F)F | potentiometry | – | – | – | pKa | 3.8
CCCCCOc1ccc(-c2ccc(-c3ccc(C(=O)N[C@H]4C[C@@H](O)[C@@H](O)NC(=O)[C@@H]5[C@@H](O)[C@@H](C)CN5C(=O)[C@H]([C@@H](C)O)NC(=O)[C@H]([C@H](O)[C@@H](O)c5ccc(O)cc5)NC(=O)[C@@H]5C[C@@H](O)CN5C(=O)[C@H]([C@@H](C)O)NC4=O)cc3)cc2)cc1 | – | human renal impairment mild | 50 mg single dose | – | AUC(0-inf) | 52500 ± 15200 ng·h/mL
OCCOCCN1CCN(C(c2ccccc2)c2ccc(Cl)cc2)CC1 (stereo not shown) | – | mouse | – | – | fraction unbound | 0.0081
CCN(C)C(=O)Oc1cccc([C@H](C)N(C)C)c1 | – | plasma | – | – | free Cmax | 0.0599 µM
O=C(O)C(F)(F)C(F)(F)F | conductometry, literature value | – | – | – | pKa | 0.38 and 0.34
Oc1ccc(C(c2ccc(O)cc2)(C(F)(F)F)C(F)(F)F)cc1 | – | – | – | – | log Kow | 4.47
Cc1ccc(C(=O)c2cc(O)c(O)c([N+](=O)[O-])c2)cc1 | – | human | – | – | fraction unbound | 0.003
CC(=O)c1c(C)c2cnc(Nc3ccc(N4CCNCC4)cn3)nc2n(C2CCCC2)c1=O | – | female rat | – | – | maximum tolerated dose | 200 mg/kg
CC[C@H](C)C[C@H](C)CCCCCCCCC(=O)N[C@H]1C[C@@H](O)[C@@H](NCCN)NC(=O)[C@@H]2[C@@H](O)CCN2C(=O)[C@H]([C@H](O)CCN)NC(=O)[C@H]([C@H](O)[C@@H](O)c2ccc(O)cc2)NC(=O)[C@@H]2C[C@@H](O)CN2C(=O)[C@H]([C@@H](C)O)NC1=O | – | human | added: radiolabelled compound | – | fraction excreted in urine | 41%
O=C(O)C(F)(F)C(F)(F)C(F)(F)C(F)(F)C(F)(F)C(F)(F)C(F)(F)F | – | healthy adult female aged 35 years, serum | 0.187 ng/kg/day | – | serum concentration | 2 ng/mL
CC(C)C[C@H]1C(=O)N2CCC[C@H]2[C@]2(O)O[C@](NC(=O)[C@@H]3C=C4c5cccc6[nH]c(Br)c(c56)C[C@H]4N(C)C3)(C(C)C)C(=O)N12 | – | dog | – | – | fraction unbound | 0.002
CNC(=C[N+](=O)[O-])NCCSCc1ccc(CN(C)C)o1 | – | human, plasma | concentration not given, range of reported values | – | Cmax | 1.14 to 9.11 µM
c1cc2c3c(cccc3c1)CC2 | – | zebrafish embryos, whole embryo | 83.12 ng/well, 48 hpf, single exposure | – | amount in tissue | 0.456 ng/well and 0.482 ng/well and 0.5 ng/well
CN(C(=O)n1cnc(-c2ccc[n+]([O-])c2)c1)C1CCCCC1 | – | monkeys | 13 weeks repeated daily dosing | – | NOAEL | 75 mg/kg/day
CN[C@H](CC(C)C)C(=O)N[C@H]1C(=O)N[C@@H](CC(N)=O)C(=O)N[C@H]2C(=O)N[C@H]3C(=O)N[C@H](C(=O)N[C@H](C(=O)O)c4cc(O)cc(O)c4-c4cc3ccc4O)[C@H](O)c3ccc(c(Cl)c3)Oc3cc2cc(c3O[C@@H]2O[C@H](CO)[C@@H](O)[C@H](O)[C@H]2O[C@H]2C[C@](C)(N)[C@H](O)[C@H](C)O2)Oc2ccc(cc2Cl)[C@H]1O | – | human | dose not given | – | fecal concentration | 175 to 6300 µg/mL
O=C1CCC(N2C(=O)c3ccccc3C2=O)C(=O)N1 (stereo not shown) | – | human | – | – | blood-to-plasma ratio | 0.905
N.N.[Cl][Pt][Cl] | item: total platinum | mouse, plasma | intravenous, 2.6 mg Pt/kg | – | AUC | 29200 ng·h/mL
CCOC(=O)N1c2ccc(C(F)(F)F)cc2[C@@H](N(Cc2cc(C(F)(F)F)cc(C(F)(F)F)c2)c2ncc(OCCCC(=O)O)cn2)C[C@H]1CC | – | human | concentration not given, fed state | reference: fasted | exposure increase | ~1.6 fold
CCOP(=S)(OCC)Oc1cc(C)nc(C(C)C)n1 | – | – | – | – | log Kow | 3.81
O=C(O)C(F)(F)C(F)(F)C(F)(F)F | – | plasma | – | – | plasma fraction unbound | 0.093
CC(=O)C[C@@H](c1ccccc1)c1c(O)c2ccccc2oc1=O | – | human, CYP2C9 *1/*1, fasted | 5 mg, added: warfarin 10 mg single dose | – | Cmax, mean | 549 ng/mL
c1ccc2c(c1)ccc1c3ccccc3ccc21 | – | zebrafish embryos, whole embryo | 284.9 ng/well, 48 hpf, single exposure | – | amount in tissue | 0.128 ng/well and 0.17 ng/well and 0.159 ng/well

Compound | assay | test system | conditions | scale | quantity | result
O=C(O)C(F)(F)C(F)(F)C(F)(F)C(F)(F)C(F)(F)C(F)(F)C(F)(F)F | – | plasma | – | – | plasma fraction unbound | 0.001
Cc1ccc2ccccc2c1 | – | zebrafish embryos, whole embryo | 165 ng/well, 48 hpf, single exposure | – | amount in tissue | 0.369 ng/well and 0.37 ng/well and 0.407 ng/well
Cc1nc2n(c(=O)c1CCN1CCC(c3noc4cc(F)ccc34)CC1)CCCC2O (stereo not shown) | – | mouse | – | – | fraction unbound | 0.129
C[C@H](NP(=O)(O)OC[C@H]1O[C@@](C#N)(c2ccc3c(N)ncnn23)[C@H](O)[C@@H]1O)C(=O)O | – | plasma | – | – | elimination half-life | 1.3 h
NC(=O)c1nc(F)c[nH]c1=O | – | hamster | intraperitoneal, 25 mg | – | lung concentration | 216 µg/g
COc1cc2c(Oc3ccc4[nH]c(C)cc4c3F)ccnc2cc1OCC1(N)CC1 | – | Beagle dog | – | – | minimum lethal dose | 67.5 mg/kg
O=C(O)C1OC(Oc2ccc(S(=O)(=O)c3ccc(O)cc3)cc2)C(O)C(O)C1O (stereo not shown) | item: BPS glucuronide | human volunteers, plasma | oral, 0.1 mg/kg deuterated BPS | – | elimination half-life | 9.3 h
O=C(O)C(F)(F)C(F)(F)C(F)(F)C(F)(F)C(F)(F)C(F)(F)F | – | human | – | – | half-life | 1680 h
Cc1c(C(=O)NN2CCCCC2)nn(-c2ccc(Cl)cc2Cl)c1-c1ccc(Cl)cc1 | – | mouse | – | – | fraction unbound | 0.0004
N#CCNC(=O)c1ccc(-c2ccnc(Nc3ccc(N4CCOCC4=O)cc3)n2)cc1 | – | severe renal impairment | dose not given | – | AUC(0-inf) increase | 41%
CNCCC=C1c2ccccc2CCc2ccccc21 | – | human | – | – | fraction unbound | 0.006
C=C[C@@H]1C[C@]1(NC(=O)[C@@H]1C[C@@H]2CN1C(=O)[C@H](C(C)(C)C)NC(=O)O[C@@H]1C[C@H]1CCCCCc1nc3ccc(OC)cc3nc1O2)C(=O)NS(=O)(=O)C1CC1 | – | human | dose not given | – | urinary radioactivity recovery | < 1%
COC(=O)[C@@H](N)Cc1ccc(OP2(=O)CO[C@@H](Cn3cnc4c(N)ncnc43)CO2)cc1 (stereo partly shown) | – | PBS | pH 6.5, Sp isomer | – | half-life | 0.917 h
ClC1=C(Cl)[C@]2(Cl)[C@@H]3[C@@H]4C[C@@H]([C@H]5O[C@@H]45)[C@@H]3[C@@]1(Cl)C2(Cl)Cl | – | – | 25 °C | – | water solubility | 0.11 µg/mL (≈ 0.289 µM)
NC1CCCCC1N.O=C([O-])C(=O)[O-].[Pt+2] (stereo not shown) | item: total platinum | mouse, plasma | intraperitoneal, 5 mg Pt/kg | – | C0 | 6.15 µg Pt/mL
O=C1C[C@@H](c2ccc(O)cc2)Oc2cc(O)cc(O)c21 | – | human, plasma | concentration not given, added: grapefruit juice | – | plasma concentration | ~6 µM
CC(C)OC(=O)[C@H](C)N[P@](=O)(OC[C@H]1O[C@@H](n2ccc(=O)[nH]c2=O)[C@](C)(F)[C@@H]1O)Oc1ccccc1 | – | – | – | – | plasma stability | > 24 h
c1ccc2c(c1)-c1cccc3cccc-2c13 | substrate | human liver microsomes | – | – | Km | 0.629 µM
COC(=O)[C@H]1[C@@H](c2ccc(C)cc2)C[C@@H]2CC[C@H]1N2C/C=C/C[18F] | PET | rat, striatum | dose not given, 24 min | – | tissue concentration | 0.862 MBq/cc and 0.563 MBq/cc and 0.681 MBq/cc and 0.889 MBq/cc and 0.827 MBq/cc
CC(CC(c1ccccc1)c1ccccc1)NC(C)(C)C (stereo not shown) | – | mouse | – | – | fraction unbound | 0.049
C1=Cc2cccc3cccc1c23 | – | fish | dose not given, experimental mean | – | bioconcentration factor | 269 L/kg
O=C(O)C(F)(F)C(F)(F)C(F)(F)C(F)(F)C(F)(F)F | – | plasma | – | – | plasma fraction unbound | 0.0068
c1cc2ccc3cccc4ccc(c1)c2c34 | – | zebrafish embryos, whole embryo | 109 ng/well, 48 hpf, single exposure | – | amount in tissue | 24.6 ng/well and 23.2 ng/well and 25.9 ng/well
CNCCCN1c2ccccc2CCc2ccccc21 | – | dog | – | – | fraction unbound | 0.017
